Assay results gathered from unrelated publications.
Numbered parts are unrelated; each lists some results of a single study.

Sample 1
Target: Histone acetyltransferase KAT6A, winged helix 1, GST fusion (KAT6A, Homo sapiens, UniProt Q92794, residues 1-85)
Technique: protein binding microarray
Molecule type: double-stranded DNA, one strand shown
Medium: in vitro
Tested at: not given
Setting: 8-mer, flanks averaged, mean of 2 arrays, mostly near background
Relative to: not given
Direction: higher = stronger binding
Endpoint: E-score
Construct (chain): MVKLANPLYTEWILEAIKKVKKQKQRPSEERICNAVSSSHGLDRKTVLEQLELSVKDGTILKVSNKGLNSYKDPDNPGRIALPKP
GAAATCAC: -0.0259
CGTCGCAC: 0.372
GACTTTAA: -0.15
ACATTGGT: -0.255
ACTGGCAA: -0.16
ACCGCGCC: 0.402
GATAGGAA: -0.161

Sample 2
Target: PABPC1L2, full length, GST fusion (mouse, UniProt A0ABA7IW68)
Technique: RNAcompete
Molecule type: RNA
Medium: in vitro
Tested at: 20 nM
Setting: 7-mer, probes averaged, single round
Relative to: mean of 7-mers
Direction: higher = stronger binding
Endpoint: 7-mer Z-score
Residues (chain): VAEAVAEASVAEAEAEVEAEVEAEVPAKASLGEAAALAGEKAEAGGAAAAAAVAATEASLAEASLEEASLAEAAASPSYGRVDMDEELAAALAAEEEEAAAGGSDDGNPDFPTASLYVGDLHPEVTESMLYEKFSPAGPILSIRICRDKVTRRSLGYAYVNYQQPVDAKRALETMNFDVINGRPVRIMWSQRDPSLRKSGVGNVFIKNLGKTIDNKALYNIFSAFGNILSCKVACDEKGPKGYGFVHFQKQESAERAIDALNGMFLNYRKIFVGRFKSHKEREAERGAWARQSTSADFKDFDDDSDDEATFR
AUCAGUU: -0.206
CUCCCUU: -0.329
UAUGGCG: 0.0315
UCUCCGC: -0.465
GUCGUUC: -0.489
ACCGAAU: -0.126

Sample 3
Target: Protein max, full length (MAX, Homo sapiens, UniProt P61244-2, residues 1-151)
Technique: protein-binding microarray
Molecule type: double-stranded DNA, one strand shown
Medium: in vitro
Tested at: not given
Setting: k-mer, scored over probes, only values ≥0.25
Direction: higher = stronger binding
Endpoint: E-score
ATGTGTCA: 0.353
GGCAGCAC: 0.259
GCTGACAC: 0.267
CACCTGGC: 0.382
GAACGTGA: 0.306

Further values, each from its own experiment
PhoQ, residues 284 288 289 292 302 303 SVTLVV
fold induction (PhoP, residues 12 14 15 18 19 NHFRA (Escherichia coli, UniProt P23836); Sort-seq, refers to: YFP reporter; E. coli; PhoQ-PhoP variant library, added: 10 µM Mg2+; relative to: high Mg2+ state, higher = stronger signaling): 1.38

Excerpt of the above (sample 2):
UCUCCGC: -0.465
GUCGUUC: -0.489
